Measurements gathered from unrelated publications.
A part holds a random share of what one study measured. Substitutions count along the parent as printed.

Sample 1 — method: protein-binding microarray; molecule type: double-stranded DNA, one strand shown; sample: in vitro; concentration: 2540 nM top; setting: 60-bp whole probe; added: salmon DNA 0.4 mg/ml; baseline: random background probes; direction: higher = stronger binding; measurement: fitted relative affinity; constant ends, left off below: GCCTAGCAC … GTCTTGATTCGCTTGACGCTGCTG
Target: Interferon regulatory factor 3, full length, phosphomimetic (IRF3, Homo sapiens, UniProt Q14653, residues 1-427, S386D/S396D/S398D/S402D/T404D/S405D)
Residues (chain): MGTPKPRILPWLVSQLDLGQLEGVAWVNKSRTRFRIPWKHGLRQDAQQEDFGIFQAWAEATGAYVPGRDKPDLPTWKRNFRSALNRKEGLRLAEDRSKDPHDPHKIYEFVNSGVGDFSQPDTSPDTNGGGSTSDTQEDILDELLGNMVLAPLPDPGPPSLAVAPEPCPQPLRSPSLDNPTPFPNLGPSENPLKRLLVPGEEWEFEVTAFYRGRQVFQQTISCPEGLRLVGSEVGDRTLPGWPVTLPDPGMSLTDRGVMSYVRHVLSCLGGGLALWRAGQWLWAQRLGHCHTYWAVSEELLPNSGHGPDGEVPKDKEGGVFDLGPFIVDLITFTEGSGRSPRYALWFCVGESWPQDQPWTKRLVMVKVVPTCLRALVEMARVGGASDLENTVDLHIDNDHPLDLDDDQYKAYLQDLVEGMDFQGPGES
TTAGGCCTGCTTTTCCTTTAGTGCTAG: 0.491 z-score
TTACGTCTCGGACTGGGTTAGTGCTAG: -0.235 z-score
TTAGATCTCAGTATTGATTAGTGCTAG: 0.298 z-score
TTAGATTTCAGACTGGGTTAGTGCTAG: 0.588 z-score
TTAGGTTTCGTTTTCGGTTAGTGCTAG: 9.02 z-score
GACGGACTGCTTCTCCTTACGTGCTAG: -0.0632 z-score
TTAGGACTGGGACAGGGTTAGTGCTAG: -0.871 z-score
GACGGTTTCGCTATCGGGACGTGCTAG: 5.95 z-score
TTACATTTCGGGTATCGATTAGTGCTA: 1.67 z-score
TCAAAGTTCATGTTCAAACTGTGCTAG: -0.0952 z-score
TTAGGACTGCTTTTCCTTTTGTGCTAG: 1.75 z-score
TAATATATATATTGTTAGTGTGTGCTA: 0.273 z-score
TTAGTACTGGACTATCGGTTAGTGCTA: -0.113 z-score
AGCTACTGAGTGGCAACACAGTGCTAG: -0.745 z-score
GATGGACTGGGTATCGGGACGTGCTAG: -0.575 z-score
CAGAAGCCAGAGAGGACAGGGTGCTAG: -0.557 z-score
GACGGTTTCGCCTATCGGGACGTGCTA: 2.93 z-score
TTAGGACTGCGACTGCTTTAGTGCTAG: -0.729 z-score
TCACCTTCTACTCTCCTACTGTGCTAG: 2.08 z-score

Sample 2 — method: protein binding microarray; molecule type: double-stranded DNA, one strand shown; sample: in vitro; concentration: not given; baseline: not given; direction: higher = stronger binding; measurement: E-score
Target: Histone acetyltransferase KAT6A, both winged helices, GST fusion (KAT6A, Homo sapiens, UniProt Q92794, residues 1-181)
Setting: 8-mer, flanks averaged, mean of 2 arrays, mostly near background
Target sequence (chain): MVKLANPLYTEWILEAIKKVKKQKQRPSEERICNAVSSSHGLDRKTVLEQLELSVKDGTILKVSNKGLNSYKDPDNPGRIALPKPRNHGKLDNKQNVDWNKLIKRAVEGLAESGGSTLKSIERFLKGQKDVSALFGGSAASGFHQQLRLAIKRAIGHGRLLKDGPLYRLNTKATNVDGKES
ATGCGGGC: 0.107
GCACTGAA: -0.112
TTGCGAAA: 0.0365
GGCAAAGA: 0.0523
AATGCGCT: 0.191
GCTCTATA: 0.00754
AGTAACCG: 0.0973
TACAGCAA: -0.00547
CTCGCGAA: 0.0853
CTTAGTAC: 0.012
CATACGAC: -0.126
TCTTTAAA: -0.113
ATTGTTCG: 0.115
ACTATGTA: -0.144
CCATTACC: -0.0367
GAGTCGGA: 0.0563
AGAGCAAT: -0.222
CCTGACTC: -0.0254
GGGGGAAA: -0.0638
CGGCTGAG: 0.0297
GTCTGTAA: 0.017
ACCGCTAC: 0.213
ATAGCGAC: 0.138
ATGATCTG: -0.0576
CCTGCCAG: -0.163

Sample 3 — method: DHFR PCA, deep sequencing; sample: yeast; added: (+)-ABA 710 µM; baseline: wild-type fitted maximum; direction: higher = stronger binding; measurement: relative binding score
Target: ABI1, truncated, D143A, DHFR fusion (Arabidopsis thaliana)
Setting: methotrexate growth selection, single substitutions
Parent: PYL1, truncated, DHFR fusion (Arabidopsis thaliana); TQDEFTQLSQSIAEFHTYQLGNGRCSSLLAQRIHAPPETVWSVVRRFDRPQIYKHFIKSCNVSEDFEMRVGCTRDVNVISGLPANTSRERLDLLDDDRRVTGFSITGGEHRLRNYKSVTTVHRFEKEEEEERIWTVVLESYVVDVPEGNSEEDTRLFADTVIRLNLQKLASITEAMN; partner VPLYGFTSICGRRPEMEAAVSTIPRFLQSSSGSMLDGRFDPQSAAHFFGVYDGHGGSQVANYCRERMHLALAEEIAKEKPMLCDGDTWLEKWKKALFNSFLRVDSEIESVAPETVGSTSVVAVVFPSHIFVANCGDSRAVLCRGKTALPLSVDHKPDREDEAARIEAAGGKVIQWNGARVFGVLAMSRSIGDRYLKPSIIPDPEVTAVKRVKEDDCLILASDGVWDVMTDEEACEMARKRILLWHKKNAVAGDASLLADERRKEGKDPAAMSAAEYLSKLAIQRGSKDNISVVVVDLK
R155M: 96.6%
H34Q: 93.3%
N22L: 102%
I133H: 108%
V44P: -1.56%
N61E: 103%
N77I: 104%
F5Y: 107%
T6D: 101%
H110G: 72.6%
L29D: 9.77%
E125T: 97.7%
G23P: 86.3%
S11V: 106%

Sample 4 — target: CCND1, cyclin fold, Cln2 fusion (human); method: yeast growth competition, sequencing; sample: yeast; setting: weak parent motif; baseline: not given; direction: higher = stronger binding; measurement: normalised enrichment score
Parent: ITGB3BP docking peptide (human); MPVKRSLKLDGLL; partner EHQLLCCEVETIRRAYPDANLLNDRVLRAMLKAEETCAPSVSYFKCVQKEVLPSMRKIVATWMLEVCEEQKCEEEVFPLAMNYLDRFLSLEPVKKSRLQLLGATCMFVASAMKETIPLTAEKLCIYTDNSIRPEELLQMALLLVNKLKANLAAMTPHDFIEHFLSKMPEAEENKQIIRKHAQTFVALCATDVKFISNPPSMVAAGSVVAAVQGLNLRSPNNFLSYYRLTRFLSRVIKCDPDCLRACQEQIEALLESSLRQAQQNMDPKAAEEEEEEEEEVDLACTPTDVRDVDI
L9A: -0.216
R5K L9F: 0.0434
V3A: 0.606
P2A: 0.286
L9F: 0.222
L12A: 0.0339
R5A: -0.229
L7A: 0.54
S6A: 0.285
R5A L7A: -0.11

For quick reference, copied from above (sample 1):
TCACCTTCTACTCTCCTACTGTGCTAG: 2.08 z-score
GACGGTTTCGCCTATCGGGACGTGCTA: 2.93 z-score
CAGAAGCCAGAGAGGACAGGGTGCTAG: -0.557 z-score
TTAGATTTCAGACTGGGTTAGTGCTAG: 0.588 z-score
TTACGTCTCGGACTGGGTTAGTGCTAG: -0.235 z-score
TTACATTTCGGGTATCGATTAGTGCTA: 1.67 z-score
TTAGGACTGCGACTGCTTTAGTGCTAG: -0.729 z-score
TTAGTACTGGACTATCGGTTAGTGCTA: -0.113 z-score
TTAGATCTCAGTATTGATTAGTGCTAG: 0.298 z-score
TTAGGACTGGGACAGGGTTAGTGCTAG: -0.871 z-score
TAATATATATATTGTTAGTGTGTGCTA: 0.273 z-score
